# Published values collected from several papers.
# Lines come from different studies, so protocols differ. Several values in a cell are separate wells, animals, samples, runs or records. Numbers after ± are the reported error.
SMILES,target,assay,test system,conditions,scale,measurement,result
COc1ccc(CNc2c(CO)cnc3c(C4CC4)cc(C#N)cc23)cn1,PDE7,inhibitor,,,,IC50,> 10000 nM
CN(C)CCCn1c(=O)c2ccc3c(=O)n(CCCN(C)C)c(=O)c4c5[nH]c6cc([N+](=O)[O-])ccc6[nH]c5c(c1=O)c2c34,HIV-1 LTR-IV G-quadruplex,FRET melting,,"0.25 µM, K+ 100 mM",,ΔTm,12 ± 1.7 °C
Cn1c(=O)oc2ccc(-c3ccc(C[C@@H](C#N)NC(=O)[C@@H]4CNCCCO4)cc3)cc21,neutrophil elastase human,"enzyme activity, PK-PD model","human, whole blood","oral, added: zymosan",,IC50,215 nM
O=c1c2ccccc2[se]n1-c1ccccc1,human AA3,,,20 µM,,inhibition,inhibited
CC1=C(C#N)[C@@H](c2ccc(C#N)cc2S(C)(=O)=O)N(C)C(=O)N1c1cccc(C(F)(F)F)c1,chymotrypsin,,,,,IC50,> 30000 nM
C=C(C)Cn1c(SCC(=O)N2CCOCC2)nc2sc3c(c2c1=O)CCCC3,Smoothened,"Gli luciferase reporter, agonist",TM3-Gli-Luc,added: SAG 20 nM,,EC50,> 20 µM
CN(C)CCCn1c(=O)c2cc(Br)c3c(=O)n(CCCN(C)C)c(=O)c4c5[nH]c6ccccc6[nH]c5c(c1=O)c2c34,HIV-1 LTR-IV G-quadruplex,FRET melting,,"0.25 µM, K+ 100 mM",,ΔTm,10.3 ± 1.1 °C
C=C(C)Cn1c(SCC(=O)c2cccs2)nc2sc3ccccc3c2c1=O,Smoothened,"Gli luciferase reporter, agonist",TM3-Gli-Luc,added: SAG 20 nM,,EC50,> 20 µM
CN(C)CCCn1c(=O)c2cc(Br)c3c(=O)n(CCCN(C)C)c(=O)c4c5[nH]c6ccc([N+](=O)[O-])cc6[nH]c5c(c1=O)c2c34,HIV-1 LTR-IV G-quadruplex,FRET melting,,"0.25 µM, K+ 100 mM",,ΔTm,5 ± 0.1 °C
c1coc(-c2n[nH]cc2-c2ccnc3ccccc23)c1,CDC5 (Candida albicans),"kinase binding, MIB/MS competition",Candida albicans lysate,10 µM,reference: DMSO,log2 fold change,0.03
FC(F)(F)CN1CC(n2cc(Oc3ccn4nc(Cl)cc4n3)cn2)C1,ELOVL1,measured: C26/C22 sphingomyelin ratio,patient fibroblasts,,,IC50,~50 nM
CC(C)C[C@@H]1NC(=O)[C@H](C(C)C)NC(=O)CNC(=O)[C@H](CC(N)=O)NC(=O)[C@@H]2CCCN2C(=O)[C@H](Cc2ccc(O)cc2)NC(=O)[C@H](CCCNC(=N)N)NC(=O)[C@H](Cc2ccccc2)NC(=O)[C@@H](NC(=O)[C@H](CCCCN)NC(=O)[C@@H]2CCCN2C(=O)[C@H](C)NC(=O)[C@H](C)NC(=O)[C@@H](N)Cc2ccc(O)cc2)CSSC[C@@H](C(=O)N[C@H](C(N)=O)[C@@H](C)O)NC(=O)[C@H](C)NC1=O,fucoidan,"binding, isothermal titration calorimetry",,"pH 7.0, 25 °C",,-ΔG,8.88 kcal/mol
C[n+]1cccc2cc(C=NNC(=O)c3ccc4ccc5ccc(C(=O)NN=Cc6ccc7c(ccc[n+]7C)c6)nc5c4n3)ccc21.[I-].[I-],telomeric antiparallel G-quadruplex DNA,UV melting,,"3 µM, 10 mM potassium, added: DNA 3 µM",,delta Tm,0.5 °C
CC[C@H](C)[C@H](NC(=O)[C@H](CC(=O)O)NC(=O)[C@H](CCC(=O)O)NC(=O)[C@@H](N)CC(N)=O)C(=O)N[C@@H](CC(=O)O)C(=O)N[C@@H](CCC(N)=O)C(=O)N[C@@H](CCSC)C(=O)N[C@@H](Cc1ccccc1)C(=O)N[C@@H](CO)C(=O)N[C@H](C(=O)N[C@@H](CC(C)C)C(=O)N[C@@H](CC(C)C)C(=O)NCC(=O)N[C@@H](CCC(=O)O)C(=O)N[C@@]1(C)CCCC=CCCC[C@@](C)(C(=O)N[C@@H](CCC(N)=O)C(=O)N[C@@H](CO)C(=O)O)NC(=O)[C@H](CC(C)C)NC(=O)[C@H](CC(C)C)NC(=O)[C@H](CC(=O)O)NC1=O)[C@@H](C)O,integrin αIIbβ3 THD-W359A,"integrin activation, PAC-1 binding flow cytometry",CHO-A5 expressing αIIbβ3 THD-W359A,"up to 100 µM, 30 min, 37 °C",,inhibition,no inhibition
CC(=O)N[C@H](C(=O)N1C[C@H](O)C[C@H]1C(=O)NCc1ccc(-c2scnc2C)cc1)C(C)(C)SCCCCCCNC(=O)C[C@@H]1N=C(c2ccc(Cl)cc2)c2c(sc(C)c2C)-n2c(C)nnc21,AHNAK (human),TMT proteomics,HeLa,"3 µM, 24 h",reference: DMSO,relative protein abundance,1
CCCCCCCC(=O)OC[C@H](COP(=O)(O)O[C@@H]1[C@H](O)[C@H](O)[C@@H](OP(=O)(O)O)[C@H](OP(=O)(O)O)[C@H]1O)OC(=O)CCCCCCC,Kv7.2/Kv7.3(EEE) mutant channel,"channel open probability, activator, fitted PIP2 binding model",,"model 4, K3 constrained",reference: channel without bound PIP2,efficacy factor E1,1.07
O=C(NN=Cc1ccc(C[n+]2ccccc2)cc1)c1ccc2ccc3ccc(C(=O)NN=Cc4ccc(C[n+]5ccccc5)cc4)nc3c2n1.[Br-].[Br-],MYC promoter parallel G-quadruplex DNA,UV melting,,"3 µM, 10 mM potassium, added: DNA 3 µM",,delta Tm,4.4 °C
CC(=O)N(C)[C@H]1CCN(C(=O)c2cnc3c(c2)C[C@](C)(c2ccc(F)cc2)N3)C1,vanin activity,LC-MS/MS,"human, plasma","60 mg, 4 h post-dose, median",reference: baseline,pantetheine increase,1350%
O=C(Nc1ccccc1OS(=O)(=O)c1ccc(F)cc1)c1ccc2ncccc2c1,"P2Y1, P2Y2, P2Y4, P2Y6, P2X2, P2X4 receptors",,,100 µM,,activity at other P2 receptors,inactive
Cn1c(=O)c2[nH]cnc2n(C)c1=O,anti-cAMP antibody,"binding, cAMP EIA, acetylated",,,,EC50,> 1000 µM
CC(C)c1noc2ncc(C(=O)c3ccccc3O)cc12,Kv7.1 potassium channel human,"ion current, inhibitor, whole-cell patch clamp",,10 µM,,inhibition,21.5% and 13.1% and 14.8% and 17% and 15.5%
N[C@@H](Cc1c[nH]c2ccccc12)C(=O)O,tryptophan indole-lyase Fusobacterium varium,"substrate, biochemical",,,,kcat/Km,0.46 µM⁻¹ min⁻¹
Oc1ccccc1-c1n[nH]cc1-c1ccnc2ccccc12,orf19.4575 Candida albicans,"kinase binding, MIB/MS competition",Candida albicans lysate,10 µM,reference: DMSO,log2 fold change,0.17
CC(C)Cn1c(=O)n(C)c(=O)c2[nH]cnc21,anti-cAMP antibody,"binding, cAMP EIA, acetylated",,,,EC50,> 1000 µM
C[N+](C)(C)CCCn1c(=O)c2ccc3c(=O)n(CCC[N+](C)(C)C)c(=O)c4c5[nH]c6ccccc6[nH]c5c(c1=O)c2c34.[I-].[I-],HIV-1 LTR-IV G-quadruplex,FRET melting,,"0.25 µM, K+ 100 mM",,ΔTm,16 ± 1.7 °C
CC(C)C[C@@H]1NC(=O)[C@H](C(C)C)NC(=O)CNC(=O)[C@H](CC(N)=O)NC(=O)[C@@H]2CCCN2C(=O)[C@H](Cc2ccc(O)cc2)NC(=O)[C@H](CCCNC(=N)N)NC(=O)[C@H](Cc2ccccc2)NC(=O)[C@@H](NC(=O)[C@H](CCCCN)NC(=O)[C@H](C)NC(=O)[C@H](CO)NC(=O)[C@H](C)NC(=O)[C@@H](N)Cc2ccc(O)cc2)CSSC[C@@H](C(=O)N[C@H](C(N)=O)[C@@H](C)O)NC(=O)[C@H](C)NC1=O,fucoidan,"binding, isothermal titration calorimetry",,"pH 7.0, 25 °C",,-ΔG,8.68 kcal/mol
CN(C(=O)n1cnc(-c2ccc[n+]([O-])c2)c1)C1CCCCC1,Ca2+-activated potassium channel,,,concentration not given,,inhibition,9.65%
CN(C)CCCn1c(=O)c2cc(Br)c3c(=O)n(CCCN(C)C)c(=O)c4c5[nH]c6ncccc6[nH]c5c(c1=O)c2c34,HIV-1 LTR-IV G-quadruplex,FRET melting,,"0.25 µM, K+ 100 mM",,ΔTm,3 ± 0.1 °C
CC(Nc1nc(N2CCCC2)nc2ccccc12)c1ccccc1 (stereo not drawn),importin α/β1,"cMyc nuclear import, high content imaging",HeLa Kyoto reporter,"31.65 µM, 2 h",,cells with nuclear reporter,98.7% and 95.6%
O=S(=O)(NCCNC/C=C/c1ccc(Br)cc1)c1cccc2cnccc12,PKA,inhibitor,mouse zygotes,"20 µM, injection, hCG, 48 h post, early embryonic development",,embryos at morula stage,0%
[H]/N=C(/N)N[C@H]1[C@H](O)[C@@H](O)[C@H](O[C@@H]2O[C@@H](C)[C@](O)(C=O)[C@H]2O[C@@H]2O[C@@H](CO)[C@H](O)[C@@H](O)[C@@H]2NC)[C@@H](N/C(N)=N\[H])[C@@H]1O,FLAG-tagged de novo protein S23,small-molecule microarray screen,,concentration not given,,binding,no binding
CSc1cc(Oc2ccnc3[nH]c(=O)cnc23)ccc1NC(=O)Nc1cc(C(C)(C)C)nn1-c1ccccc1,Met,reverse-phase protein array,patient-derived cell,"1 µM, 4 h",reference: DMSO,phospho-Met/total Met ratio,0.78
C=C(C)Cn1c(SCC(=O)c2cccs2)nc2sc3c(c2c1=O)CCOC3,Smoothened,"Gli luciferase reporter, agonist",TM3-Gli-Luc,added: SAG 20 nM,,EC50,> 20 µM
